Measurements from different studies.
Several values in a cell are separate wells, animals, samples, runs or records. ± gives the spread as reported. In brackets after ≈: the same amount, converted by molar mass.

Structure (SMILES) | assay | system | conditions | scale | endpoint | result
C[C@H]1COCCN1c1nc(NCc2cccnc2C(F)(F)F)c2cccnc2n1 | – | male CD-1 mouse, femur bone marrow | oral, 1000 mg/kg twice, 48 h | – | PCE per 200 erythrocytes | 111 and 97 and 76
N[C@@H]1c2ccccc2OC12CCN(c1cnc3c(N4CCCc5ncccc54)n[nH]c3n1)CC2 | – | advanced solid tumour patients | oral, 50 mg once daily | – | serious TEAE grade ≥3 | 33.3%
CO[C@H]1C[C@@H]2CC[C@@H](C)[C@@](O)(O2)C(=O)C(=O)N2CCCC[C@H]2C(=O)O[C@H]([C@H](C)C[C@@H]2CC[C@@H](OC(=O)NCCOCCOCCOCCOCCOCCOCCOCCOCCC(=O)N3CCc4cc(Cn5nc(-c6ccc7oc(N)nc7c6)c6c(N)ncnc65)ccc4C3)[C@H](OC)C2)C[C@@H](O)[C@H](C)/C=C(\C)[C@@H](O)[C@@H](OC)C(=O)[C@H](C)C[C@H](C)/C=C/C=C/C=C/1C | phase 1 dose escalation, item: decreased appetite | advanced solid tumour patients | intravenous, 8 mg weekly, any grade | – | TRAE incidence | 25%
Cn1cncc1-c1c(F)cncc1NC(=O)c1c(N)nn2cc(F)cnc12 | – | human patients | oral, 130 mg once daily | – | grade ≥3 white cell decrease incidence | 0%
COc1cc2c(Oc3ccc4[nH]c(C)cc4c3F)ccnc2cc1OCC1(N)CC1 | – | paediatric recurrent refractory sarcoma | concentration not given, whole group | – | grade 3 Appendicitis | 2.9%
C[C@]1(CO)Cc2ncn(-c3ccc(C#N)c(Cl)c3)c2C(=O)O1 | – | human | 40 mg multiple doses, fasted | – | subjects with any TEAE | 22.2%
COc1cc(Nc2ncc(F)c(Nc3ccc4c(n3)NC(=O)C(C)(C)O4)n2)cc(OC)c1OC | – | PBS | 3 h, pH 7.4, 1% DMSO | – | solubility | 1.1 µM (≈ 0.518 µg/mL)
[O-][S+]1CCc2nc(N3CCC(c4ncc(Cl)cn4)CC3)nc(NC3(CO)CCC3)c21 (centres unmarked) | item: Constipation | healthy male humans | single dose, all groups | – | adverse event incidence | 8.3%
O=C(Nc1ccccc1)C1CCN(C(=O)Oc2cccnc2)CC1 | Bond-Lader VAS | healthy women | oral, 60 mg | reference: pre-dose baseline, direction not given | change in Incompetent-Proficient score | 7.5
[2H]C([2H])([18F])[C@]([2H])(N)C(=O)O | – | U-87 MG xenograft mouse, kidney | 110 min | – | tissue uptake | 7.44 ± 3.16 %ID/g
O=C(c1cc(Cc2n[nH]c(=O)c3ccccc23)ccc1F)N1CCN(C(=O)C2CC2)CC1 | HPLC-MS/MS | human patients, plasma | oral, 75 mg twice daily, MTD dose level, cycle 1 day 1, with: carboplatin target AUC 4 | – | AUC(0-12 h) | 16300 ng·h/mL
O[C@H]1CCCN[C@@H]1CCCn1cnc2c(Cl)c(Cl)ccc21 | – | healthy humans, plasma | oral, 150 mg twice daily | – | terminal half-life | 4.09 h
CCS(=O)(=O)Nc1ccc(Oc2ccc(F)cc2F)c(-c2cn(C)c(=O)c3[nH]ccc23)c1 | fatal fungal sepsis | human, relapsed/refractory AML | oral, dose not given | – | treatment-emergent adverse events | 5%
CC(C)C[C@H](NC(=O)[C@H](CCCCN)NC(=O)OCC1c2ccccc2-c2ccccc21)C(=O)N[C@H](C(=O)N[C@@H](Cc1ccccc1)C(=O)N[C@@H](Cc1ccccc1)C(=O)N[C@@H](CCCCN)C(=O)NCC(=O)N[C@@H](Cc1ccccc1)C(=O)N[C@@H](C)C(=O)N[C@@H](Cc1c[nH]c2ccccc12)C(=O)N[C@@H](CC(N)=O)C(=O)N[C@H](C(=O)N[C@H]1CSSC[C@@H](C(=O)N[C@@H](Cc2c[nH]cn2)C(=O)N[C@@H](CCCNC(=N)N)C(=O)N[C@@H](CCCNC(=N)N)C(=O)N[C@@H](C)C(=O)N[C@@H](CC(N)=O)C(N)=O)NC(=O)[C@H](C(C)C)NC(=O)[C@H](CCCNC(=N)N)NC(=O)[C@H](C(C)C)NC(=O)CNC(=O)[C@H](CC(N)=O)NC(=O)[C@H](CCCNC(=N)N)NC(=O)[C@H](Cc2ccc(O)cc2)NC(=O)[C@H](C(C)C)NC1=O)C(C)C)C(C)C | – | ICR mouse | ip, 10 mg/kg | direction not given | tremor score | 0

Excerpt of the above:
Structure (SMILES) | assay | system | conditions | scale | endpoint | result
[O-][S+]1CCc2nc(N3CCC(c4ncc(Cl)cn4)CC3)nc(NC3(CO)CCC3)c21 (centres unmarked) | item: Constipation | healthy male humans | single dose, all groups | – | adverse event incidence | 8.3%
N[C@@H]1c2ccccc2OC12CCN(c1cnc3c(N4CCCc5ncccc54)n[nH]c3n1)CC2 | – | advanced solid tumour patients | oral, 50 mg once daily | – | serious TEAE grade ≥3 | 33.3%
